Assay results gathered from unrelated publications.
Each numbered part is a random draw from the data of one study; scales do not carry over between parts.
Chain of UniProt P49761 (whole entry, looked up): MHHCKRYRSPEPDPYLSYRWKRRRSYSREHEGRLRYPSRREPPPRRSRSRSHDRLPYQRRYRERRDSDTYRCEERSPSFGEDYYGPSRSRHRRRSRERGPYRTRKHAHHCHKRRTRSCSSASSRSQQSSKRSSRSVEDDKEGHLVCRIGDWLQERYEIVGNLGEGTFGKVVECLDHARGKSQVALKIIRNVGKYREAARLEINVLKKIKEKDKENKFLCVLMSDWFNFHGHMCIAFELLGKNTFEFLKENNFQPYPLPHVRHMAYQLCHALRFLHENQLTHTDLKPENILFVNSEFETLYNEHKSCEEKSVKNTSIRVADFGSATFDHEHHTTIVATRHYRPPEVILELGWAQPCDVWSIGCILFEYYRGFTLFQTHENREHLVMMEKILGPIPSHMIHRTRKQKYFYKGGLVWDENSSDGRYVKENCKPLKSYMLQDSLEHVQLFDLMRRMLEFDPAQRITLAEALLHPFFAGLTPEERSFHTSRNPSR
Chain of UniProt Q96GD4 (whole entry, looked up): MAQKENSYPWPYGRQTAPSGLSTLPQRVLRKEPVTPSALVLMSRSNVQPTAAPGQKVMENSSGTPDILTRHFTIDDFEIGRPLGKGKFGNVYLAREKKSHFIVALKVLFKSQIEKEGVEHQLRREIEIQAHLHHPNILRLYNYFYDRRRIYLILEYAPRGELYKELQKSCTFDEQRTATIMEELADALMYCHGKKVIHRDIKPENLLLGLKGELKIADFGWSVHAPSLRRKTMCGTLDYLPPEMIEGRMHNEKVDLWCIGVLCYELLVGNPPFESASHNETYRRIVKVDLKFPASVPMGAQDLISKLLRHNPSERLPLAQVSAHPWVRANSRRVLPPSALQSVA
Chain of UniProt Q04759 (whole entry, looked up): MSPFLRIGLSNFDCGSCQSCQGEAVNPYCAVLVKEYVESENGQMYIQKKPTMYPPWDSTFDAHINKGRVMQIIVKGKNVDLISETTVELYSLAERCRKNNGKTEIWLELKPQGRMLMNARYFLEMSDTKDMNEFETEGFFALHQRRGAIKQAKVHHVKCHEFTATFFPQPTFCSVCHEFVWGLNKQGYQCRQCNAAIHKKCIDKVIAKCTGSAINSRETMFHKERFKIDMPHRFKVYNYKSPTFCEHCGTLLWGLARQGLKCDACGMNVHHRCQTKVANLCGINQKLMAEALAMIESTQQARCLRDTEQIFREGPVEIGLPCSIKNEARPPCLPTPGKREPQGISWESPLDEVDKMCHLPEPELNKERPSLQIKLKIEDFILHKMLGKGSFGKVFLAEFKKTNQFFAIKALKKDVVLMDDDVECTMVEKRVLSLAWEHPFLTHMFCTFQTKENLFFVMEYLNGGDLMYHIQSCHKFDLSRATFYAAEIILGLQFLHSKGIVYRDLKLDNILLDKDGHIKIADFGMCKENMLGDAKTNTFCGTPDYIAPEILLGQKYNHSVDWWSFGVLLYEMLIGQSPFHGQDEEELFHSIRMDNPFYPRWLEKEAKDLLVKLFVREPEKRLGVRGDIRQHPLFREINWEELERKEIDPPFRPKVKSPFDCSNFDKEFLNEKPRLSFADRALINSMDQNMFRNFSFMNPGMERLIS
Chain of UniProt Q8N4C8 (whole entry, looked up): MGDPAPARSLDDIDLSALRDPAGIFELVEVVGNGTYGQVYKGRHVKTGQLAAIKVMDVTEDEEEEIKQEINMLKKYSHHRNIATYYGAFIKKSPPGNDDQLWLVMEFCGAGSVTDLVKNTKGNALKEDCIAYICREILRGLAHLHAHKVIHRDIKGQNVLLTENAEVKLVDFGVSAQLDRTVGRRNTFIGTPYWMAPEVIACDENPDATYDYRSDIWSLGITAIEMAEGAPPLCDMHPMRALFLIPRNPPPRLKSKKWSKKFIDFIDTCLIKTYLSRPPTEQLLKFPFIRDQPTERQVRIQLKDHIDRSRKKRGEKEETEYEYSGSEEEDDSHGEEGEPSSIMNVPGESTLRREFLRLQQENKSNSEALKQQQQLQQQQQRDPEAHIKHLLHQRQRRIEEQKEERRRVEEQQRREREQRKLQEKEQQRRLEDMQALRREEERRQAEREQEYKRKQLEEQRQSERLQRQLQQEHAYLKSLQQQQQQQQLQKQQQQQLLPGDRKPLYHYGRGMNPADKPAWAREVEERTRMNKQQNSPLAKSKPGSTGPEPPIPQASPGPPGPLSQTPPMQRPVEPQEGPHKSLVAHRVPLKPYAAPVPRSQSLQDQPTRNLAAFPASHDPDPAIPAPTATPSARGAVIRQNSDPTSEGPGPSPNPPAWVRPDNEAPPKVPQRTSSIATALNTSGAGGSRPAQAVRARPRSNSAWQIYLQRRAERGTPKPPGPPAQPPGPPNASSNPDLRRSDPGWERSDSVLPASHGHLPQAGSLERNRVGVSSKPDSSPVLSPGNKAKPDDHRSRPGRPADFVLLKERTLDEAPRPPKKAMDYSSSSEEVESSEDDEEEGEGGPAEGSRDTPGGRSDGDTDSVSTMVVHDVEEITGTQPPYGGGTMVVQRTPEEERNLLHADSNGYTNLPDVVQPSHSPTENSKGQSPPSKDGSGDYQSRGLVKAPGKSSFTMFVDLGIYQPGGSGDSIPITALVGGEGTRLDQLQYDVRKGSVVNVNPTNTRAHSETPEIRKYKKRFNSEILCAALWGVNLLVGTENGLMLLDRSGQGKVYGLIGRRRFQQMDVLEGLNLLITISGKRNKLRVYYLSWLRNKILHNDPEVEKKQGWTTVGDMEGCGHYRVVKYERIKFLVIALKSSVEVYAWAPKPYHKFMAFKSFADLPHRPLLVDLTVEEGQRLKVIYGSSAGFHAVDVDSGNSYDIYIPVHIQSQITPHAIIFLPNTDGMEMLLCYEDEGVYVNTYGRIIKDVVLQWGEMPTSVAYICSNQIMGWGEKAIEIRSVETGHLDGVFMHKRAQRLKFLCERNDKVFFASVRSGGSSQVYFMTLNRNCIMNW
Chain of UniProt P32298 (whole entry, looked up): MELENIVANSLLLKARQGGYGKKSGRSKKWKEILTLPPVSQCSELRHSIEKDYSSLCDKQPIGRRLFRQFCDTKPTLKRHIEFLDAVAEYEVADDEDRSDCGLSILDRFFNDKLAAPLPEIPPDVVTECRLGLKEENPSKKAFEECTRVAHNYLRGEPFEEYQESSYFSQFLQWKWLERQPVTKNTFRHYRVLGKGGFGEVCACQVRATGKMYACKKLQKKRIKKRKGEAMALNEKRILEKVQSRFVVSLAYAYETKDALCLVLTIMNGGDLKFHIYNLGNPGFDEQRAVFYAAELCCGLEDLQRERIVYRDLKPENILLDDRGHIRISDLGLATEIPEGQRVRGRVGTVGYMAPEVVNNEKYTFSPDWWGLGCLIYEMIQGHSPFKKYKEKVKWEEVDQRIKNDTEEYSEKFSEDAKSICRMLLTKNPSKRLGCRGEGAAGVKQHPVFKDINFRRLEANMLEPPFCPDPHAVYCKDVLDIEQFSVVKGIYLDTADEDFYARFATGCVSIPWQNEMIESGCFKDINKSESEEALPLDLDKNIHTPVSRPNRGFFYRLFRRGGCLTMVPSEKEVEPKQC
Chain of UniProt P51955 (whole entry, looked up): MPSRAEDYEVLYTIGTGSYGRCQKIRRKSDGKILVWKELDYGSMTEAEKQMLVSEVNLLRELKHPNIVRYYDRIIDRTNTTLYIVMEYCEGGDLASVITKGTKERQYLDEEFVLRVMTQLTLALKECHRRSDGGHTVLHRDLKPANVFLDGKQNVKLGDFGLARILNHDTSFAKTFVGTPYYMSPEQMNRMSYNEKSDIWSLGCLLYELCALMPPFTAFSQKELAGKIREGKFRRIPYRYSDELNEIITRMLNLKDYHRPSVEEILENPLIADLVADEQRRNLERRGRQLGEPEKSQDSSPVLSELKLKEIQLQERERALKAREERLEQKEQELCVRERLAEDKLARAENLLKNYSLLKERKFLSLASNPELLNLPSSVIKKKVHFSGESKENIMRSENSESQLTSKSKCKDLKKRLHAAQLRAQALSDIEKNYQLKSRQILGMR
Chain of UniProt Q16539 (whole entry, looked up): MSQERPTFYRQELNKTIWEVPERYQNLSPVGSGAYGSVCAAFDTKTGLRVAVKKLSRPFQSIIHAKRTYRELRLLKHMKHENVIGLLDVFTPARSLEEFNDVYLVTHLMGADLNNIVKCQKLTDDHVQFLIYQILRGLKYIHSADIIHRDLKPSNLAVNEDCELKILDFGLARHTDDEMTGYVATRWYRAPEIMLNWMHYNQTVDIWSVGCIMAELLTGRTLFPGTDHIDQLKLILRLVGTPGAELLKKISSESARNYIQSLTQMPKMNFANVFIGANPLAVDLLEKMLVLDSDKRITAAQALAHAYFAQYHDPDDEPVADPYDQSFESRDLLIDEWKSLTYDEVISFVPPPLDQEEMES
Chain of UniProt Q8WU08 (whole entry, looked up): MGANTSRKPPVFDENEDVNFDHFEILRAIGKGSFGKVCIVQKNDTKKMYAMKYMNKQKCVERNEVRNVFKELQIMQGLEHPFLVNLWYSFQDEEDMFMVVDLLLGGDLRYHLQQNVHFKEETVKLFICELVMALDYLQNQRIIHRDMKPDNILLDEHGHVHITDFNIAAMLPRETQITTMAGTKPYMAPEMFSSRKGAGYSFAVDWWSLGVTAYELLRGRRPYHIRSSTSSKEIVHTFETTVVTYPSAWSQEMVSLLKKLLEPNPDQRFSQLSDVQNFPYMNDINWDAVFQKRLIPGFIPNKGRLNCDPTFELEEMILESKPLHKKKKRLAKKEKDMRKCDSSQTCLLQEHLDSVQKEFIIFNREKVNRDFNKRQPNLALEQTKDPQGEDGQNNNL
Chain of UniProt P06493 (whole entry, looked up): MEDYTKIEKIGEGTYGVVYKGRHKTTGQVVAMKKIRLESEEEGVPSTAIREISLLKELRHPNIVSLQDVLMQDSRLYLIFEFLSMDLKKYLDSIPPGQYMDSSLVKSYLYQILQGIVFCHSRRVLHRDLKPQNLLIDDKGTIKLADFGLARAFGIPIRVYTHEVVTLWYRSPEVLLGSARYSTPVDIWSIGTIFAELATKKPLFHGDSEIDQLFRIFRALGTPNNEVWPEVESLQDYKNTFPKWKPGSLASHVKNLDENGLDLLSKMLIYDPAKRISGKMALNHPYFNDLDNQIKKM

Series 1 — observed: enzyme activity; mode: inhibitor; tested at: 0.5 µM; relative to: control
Structure (SMILES): O=Nc1c(-c2c(O)[nH]c3cc(Br)ccc23)[nH]c2ccccc12
target | remaining activity [%]
Dual specificity protein kinase CLK4 (CLK4, Homo sapiens, UniProt Q9HAZ1) | 97
Ribosomal protein S6 kinase alpha-4 (RPS6KA4, Homo sapiens, UniProt O75676) | 56.1
Serine/threonine-protein kinase Nek3 (NEK3, Homo sapiens, UniProt P51956) | 84.4
Vascular endothelial growth factor receptor 2 (KDR, Homo sapiens, UniProt P35968) | 64.2
Dual specificity protein kinase CLK3 (CLK3, Homo sapiens, UniProt P49761) | 71.2
Serine/threonine-protein kinase PAK 3 (PAK3, Homo sapiens, UniProt O75914) | 99.7
Misshapen-like kinase 1 (MINK1, Homo sapiens, UniProt Q8N4C8) | 47.8
Calcium/calmodulin-dependent protein kinase type IV (CAMK4, Homo sapiens, UniProt Q16566) | 96.3
Tyrosine-protein kinase TXK (TXK, Homo sapiens, UniProt P42681) | 27.7
Cyclin-dependent kinase 1, with cyclin A (CDK1, Homo sapiens, UniProt P06493) | 59.7
RAC-beta serine/threonine-protein kinase (AKT2, Homo sapiens, UniProt P31751) | 101
Mitogen-activated protein kinase 14 (MAPK14, Homo sapiens, UniProt Q16539) | 105
G protein-coupled receptor kinase 4 (GRK4, Homo sapiens, UniProt P32298) | 90.1

Series 2
SMILES: COc1cc(C(=O)N2CCC(N3CCN(C)CC3)CC2)ccc1Nc1ncc2c(n1)N(C)c1ccccc1C(=O)N2C
target | test | test system | conditions | inhibition
PIP4K2C (mouse) | KiNativ ADP probe | mouse brain tissue | 0.1 µM, ATP site probe | -6.7%
SYK human | KiNativ profiling | human PBMC | 0.1 µM, LYS1 site, together with: ADP acyl phosphate probe | 0%
ZAP70 human | KiNativ profiling | human PBMC | 1 µM, DFG motif site, together with: ATP acyl phosphate probe | -4.7%
mouse MER and TYRO3 | probe labelling, KiNativ ATP probe | mouse brain lysate | 1 µM | 6.7%
PIK3CD human | KiNativ profiling | human PBMC | 1 µM, ATP site, together with: ATP acyl phosphate probe | 10.7%
MAP2K4 (mouse) | probe labelling, KiNativ, item: DIkPSNILLDR peptide, LYS2 site | brain tissue lysate (mouse) | 1 µM, together with: ADP acyl-phosphate probe | -22.2%

Series 3 — method: competition with immobilised ligand; tested at: 1 µM
Structure (SMILES): O=C(O)[C@H]1[C@H](Cn2nnc3ccccc3c2=O)CC[C@@H]1C(=O)c1ccc(OCCC2CCOCC2)cc1
target | observed | remaining binding [%]
Receptor-interacting serine/threonine-protein kinase 4 (RIPK4, Homo sapiens, UniProt P57078) | cell-free assay | 80
Phosphatidylinositol 4,5-bisphosphate 3-kinase catalytic subunit alpha isoform (PIK3CA, Homo sapiens, UniProt P42336) | cell-free assay | 100
Protein kinase C theta type (PRKCQ, Homo sapiens, UniProt Q04759) | cell-free assay | 80
Serine/threonine-protein kinase Nek2 (NEK2, Homo sapiens, UniProt P51955) | cell-free assay | 100
Muscle, skeletal receptor tyrosine-protein kinase (MUSK, Homo sapiens, UniProt O15146) | cell-free assay | 95
Aurora kinase B (AURKB, Homo sapiens, UniProt Q96GD4) | cell-free assay | 100
Serine/threonine-protein kinase 32A (STK32A, Homo sapiens, UniProt Q8WU08) | binding | 88
Serine/threonine-protein kinase LATS1 (LATS1, Homo sapiens, UniProt O95835) | cell-free assay | 84

Series 4 — host: mouse; medium: microsomes or S9; tested at: 2 µM; time: 0.5 h
Structure (SMILES) | remaining compound [%]
Cn1cc(-c2noc(C3CCCCC3)n2)ccc1=O | 3.42
CC1(C)CC(NS(=O)(=O)c2cc(Cl)ccc2Cl)CC(C)(C)N1 | 52.4
Cc1ccc(C#N)c(NC(C)Cc2c(C)noc2C)n1 (stereo not drawn) | 0.0127
Nc1cccc(COc2cc(Cl)c(Cl)cc2Cl)c1 | 69.6
CCN(CC)C(=O)[C@@H]1C[C@@H](NC(=O)Cn2ccc3ccccc32)CN1C | 15.4
CCO[C@@H]1CCC[C@H](CC(=O)c2cccs2)[C@H]1C(=O)c1cccs1 | 0.827
O=C(O)c1cc2cc(-c3ccncc3)c3ccccc3c2o1 | 87.9
CCc1nn(C)c(Cl)c1CN1CCc2cc(F)c(F)cc21 | 93.3
CC(=O)OC/C=C/CCCC/C=C/COC(C)=O | > 99.9

A few entries again (series 2):
target | test | test system | conditions | inhibition
PIP4K2C (mouse) | KiNativ ADP probe | mouse brain tissue | 0.1 µM, ATP site probe | -6.7%
SYK human | KiNativ profiling | human PBMC | 0.1 µM, LYS1 site, together with: ADP acyl phosphate probe | 0%
ZAP70 human | KiNativ profiling | human PBMC | 1 µM, DFG motif site, together with: ATP acyl phosphate probe | -4.7%
